# Measurements collected from several papers.
# Numbered parts are unrelated; each lists some results of a single study.
# Sequence of UniProt P42680 (whole entry, looked up): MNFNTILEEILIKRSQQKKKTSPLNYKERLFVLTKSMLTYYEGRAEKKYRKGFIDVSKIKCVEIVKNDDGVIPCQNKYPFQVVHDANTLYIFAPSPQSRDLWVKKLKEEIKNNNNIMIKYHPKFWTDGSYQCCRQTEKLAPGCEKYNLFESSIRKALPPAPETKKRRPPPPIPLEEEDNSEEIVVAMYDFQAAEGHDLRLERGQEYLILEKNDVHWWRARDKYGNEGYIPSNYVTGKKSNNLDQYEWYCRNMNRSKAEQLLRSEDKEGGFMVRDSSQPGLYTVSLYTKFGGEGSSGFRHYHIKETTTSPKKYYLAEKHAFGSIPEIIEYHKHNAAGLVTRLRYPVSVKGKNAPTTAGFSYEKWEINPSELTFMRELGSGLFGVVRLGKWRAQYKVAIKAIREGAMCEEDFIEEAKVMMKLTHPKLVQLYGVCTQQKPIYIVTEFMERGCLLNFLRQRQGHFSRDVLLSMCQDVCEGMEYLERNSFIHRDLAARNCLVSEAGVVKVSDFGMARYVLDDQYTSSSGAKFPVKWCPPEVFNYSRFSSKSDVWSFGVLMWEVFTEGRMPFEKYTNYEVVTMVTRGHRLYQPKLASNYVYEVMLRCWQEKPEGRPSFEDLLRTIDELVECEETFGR
# Sequence of UniProt Q14289 (whole entry, looked up): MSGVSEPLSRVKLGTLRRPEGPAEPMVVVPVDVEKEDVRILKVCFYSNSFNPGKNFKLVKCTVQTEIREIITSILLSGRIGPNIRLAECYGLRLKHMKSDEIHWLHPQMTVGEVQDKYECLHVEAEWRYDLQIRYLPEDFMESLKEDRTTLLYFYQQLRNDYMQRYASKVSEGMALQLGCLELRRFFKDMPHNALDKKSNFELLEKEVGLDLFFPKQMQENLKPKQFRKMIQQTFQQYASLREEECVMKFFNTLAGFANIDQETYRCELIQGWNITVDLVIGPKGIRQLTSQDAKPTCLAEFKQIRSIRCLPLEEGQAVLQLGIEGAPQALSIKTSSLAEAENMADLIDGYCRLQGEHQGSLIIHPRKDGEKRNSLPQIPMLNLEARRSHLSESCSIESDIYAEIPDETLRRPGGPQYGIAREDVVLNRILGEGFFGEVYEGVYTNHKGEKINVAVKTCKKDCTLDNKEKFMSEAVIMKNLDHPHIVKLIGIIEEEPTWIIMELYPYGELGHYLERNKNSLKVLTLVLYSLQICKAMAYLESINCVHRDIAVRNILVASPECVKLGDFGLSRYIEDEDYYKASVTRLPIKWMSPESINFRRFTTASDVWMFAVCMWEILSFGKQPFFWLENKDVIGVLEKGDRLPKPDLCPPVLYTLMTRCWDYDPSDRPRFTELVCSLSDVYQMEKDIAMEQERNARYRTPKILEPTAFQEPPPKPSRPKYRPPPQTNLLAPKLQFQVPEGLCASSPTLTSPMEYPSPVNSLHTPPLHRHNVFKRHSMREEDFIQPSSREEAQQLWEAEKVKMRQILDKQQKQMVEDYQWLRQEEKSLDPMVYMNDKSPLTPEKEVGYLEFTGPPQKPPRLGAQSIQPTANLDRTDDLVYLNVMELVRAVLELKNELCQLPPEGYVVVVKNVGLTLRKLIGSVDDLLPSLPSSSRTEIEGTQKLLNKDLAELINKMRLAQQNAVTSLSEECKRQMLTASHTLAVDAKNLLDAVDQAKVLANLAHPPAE
# Sequence of UniProt Q9HCP0 (whole entry, looked up): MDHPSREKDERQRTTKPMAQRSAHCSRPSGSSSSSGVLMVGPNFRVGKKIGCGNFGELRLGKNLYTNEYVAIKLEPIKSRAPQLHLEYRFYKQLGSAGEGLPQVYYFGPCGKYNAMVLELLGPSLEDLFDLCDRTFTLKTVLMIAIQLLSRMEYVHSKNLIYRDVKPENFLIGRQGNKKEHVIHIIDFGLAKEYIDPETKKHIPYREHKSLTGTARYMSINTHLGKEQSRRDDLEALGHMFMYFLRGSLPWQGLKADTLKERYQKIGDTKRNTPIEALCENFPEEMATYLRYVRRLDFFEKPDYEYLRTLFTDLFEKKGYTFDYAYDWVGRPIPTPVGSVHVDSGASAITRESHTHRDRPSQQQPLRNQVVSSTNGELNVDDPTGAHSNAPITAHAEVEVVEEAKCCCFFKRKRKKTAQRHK
# Sequence of UniProt P42336 (whole entry, unmodified, looked up): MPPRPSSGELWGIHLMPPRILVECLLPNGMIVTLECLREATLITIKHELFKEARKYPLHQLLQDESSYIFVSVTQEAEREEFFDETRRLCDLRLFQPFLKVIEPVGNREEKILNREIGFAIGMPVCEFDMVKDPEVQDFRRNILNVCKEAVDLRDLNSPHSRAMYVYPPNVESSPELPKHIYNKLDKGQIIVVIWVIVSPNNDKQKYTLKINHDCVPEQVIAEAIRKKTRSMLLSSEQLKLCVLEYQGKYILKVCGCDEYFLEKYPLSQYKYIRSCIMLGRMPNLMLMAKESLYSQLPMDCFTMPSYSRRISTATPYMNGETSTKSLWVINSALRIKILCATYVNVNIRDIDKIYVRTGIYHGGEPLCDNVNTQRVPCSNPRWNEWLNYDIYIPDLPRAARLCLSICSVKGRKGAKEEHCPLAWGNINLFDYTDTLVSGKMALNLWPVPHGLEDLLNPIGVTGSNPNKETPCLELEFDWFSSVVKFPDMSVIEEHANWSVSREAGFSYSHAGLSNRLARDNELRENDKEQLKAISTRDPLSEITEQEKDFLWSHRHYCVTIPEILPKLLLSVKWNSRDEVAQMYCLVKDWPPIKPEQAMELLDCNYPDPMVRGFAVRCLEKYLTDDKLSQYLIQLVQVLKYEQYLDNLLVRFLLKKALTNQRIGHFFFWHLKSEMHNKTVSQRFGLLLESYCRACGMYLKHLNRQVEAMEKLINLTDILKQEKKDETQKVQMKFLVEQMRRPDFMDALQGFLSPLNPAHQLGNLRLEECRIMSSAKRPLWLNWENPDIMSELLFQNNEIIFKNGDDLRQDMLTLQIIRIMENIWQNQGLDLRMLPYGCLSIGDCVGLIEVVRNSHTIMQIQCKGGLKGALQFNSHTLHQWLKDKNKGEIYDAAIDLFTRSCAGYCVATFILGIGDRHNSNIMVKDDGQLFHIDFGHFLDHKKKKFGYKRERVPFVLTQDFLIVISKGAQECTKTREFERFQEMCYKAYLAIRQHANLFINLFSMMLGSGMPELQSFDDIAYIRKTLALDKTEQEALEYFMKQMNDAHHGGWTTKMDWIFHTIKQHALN
# Sequence of UniProt Q92918 (whole entry, looked up): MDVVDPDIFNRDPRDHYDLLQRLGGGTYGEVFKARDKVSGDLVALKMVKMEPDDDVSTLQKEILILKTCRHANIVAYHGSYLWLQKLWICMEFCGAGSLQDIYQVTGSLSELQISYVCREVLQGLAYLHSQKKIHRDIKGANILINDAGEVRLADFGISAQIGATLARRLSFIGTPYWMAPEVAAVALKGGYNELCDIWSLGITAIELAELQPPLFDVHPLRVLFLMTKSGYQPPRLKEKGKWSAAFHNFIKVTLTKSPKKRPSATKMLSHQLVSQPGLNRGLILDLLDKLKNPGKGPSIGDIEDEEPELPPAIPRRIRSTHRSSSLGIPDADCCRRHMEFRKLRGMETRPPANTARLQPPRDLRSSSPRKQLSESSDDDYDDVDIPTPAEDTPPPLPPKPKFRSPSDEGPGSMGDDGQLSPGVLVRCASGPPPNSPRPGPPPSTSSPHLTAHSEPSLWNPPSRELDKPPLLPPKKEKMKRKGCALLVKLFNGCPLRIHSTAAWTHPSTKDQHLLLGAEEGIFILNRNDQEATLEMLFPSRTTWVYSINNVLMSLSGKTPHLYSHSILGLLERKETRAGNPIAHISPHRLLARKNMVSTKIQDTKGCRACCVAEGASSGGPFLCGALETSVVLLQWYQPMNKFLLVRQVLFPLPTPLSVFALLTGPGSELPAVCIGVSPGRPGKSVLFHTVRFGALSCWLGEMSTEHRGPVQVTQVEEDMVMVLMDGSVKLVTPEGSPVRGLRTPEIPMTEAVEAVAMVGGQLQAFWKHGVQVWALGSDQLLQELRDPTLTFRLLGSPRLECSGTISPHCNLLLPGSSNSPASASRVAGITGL
# Sequence of UniProt Q8NFD2 (whole entry, looked up): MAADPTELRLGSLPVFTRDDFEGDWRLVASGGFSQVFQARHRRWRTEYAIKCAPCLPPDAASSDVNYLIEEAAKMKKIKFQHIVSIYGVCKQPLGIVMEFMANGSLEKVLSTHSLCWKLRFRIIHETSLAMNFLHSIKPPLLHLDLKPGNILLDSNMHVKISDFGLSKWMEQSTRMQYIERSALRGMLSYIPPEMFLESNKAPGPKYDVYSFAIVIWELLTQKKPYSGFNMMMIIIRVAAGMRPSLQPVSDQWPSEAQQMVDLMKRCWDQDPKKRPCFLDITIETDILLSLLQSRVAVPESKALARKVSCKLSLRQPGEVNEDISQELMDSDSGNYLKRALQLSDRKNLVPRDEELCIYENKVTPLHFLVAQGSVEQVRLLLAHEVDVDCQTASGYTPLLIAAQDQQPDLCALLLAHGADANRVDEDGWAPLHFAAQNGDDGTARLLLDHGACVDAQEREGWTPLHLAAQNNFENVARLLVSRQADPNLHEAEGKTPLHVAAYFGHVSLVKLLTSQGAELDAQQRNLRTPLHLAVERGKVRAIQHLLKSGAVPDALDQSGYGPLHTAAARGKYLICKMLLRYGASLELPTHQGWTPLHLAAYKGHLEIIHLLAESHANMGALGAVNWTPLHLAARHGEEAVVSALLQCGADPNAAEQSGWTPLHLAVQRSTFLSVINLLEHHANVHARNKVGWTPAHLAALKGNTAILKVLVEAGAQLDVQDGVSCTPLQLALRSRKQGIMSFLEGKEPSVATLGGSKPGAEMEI

# Study 1
# Target: RING finger protein unkempt homolog, zinc fingers 1-6, GST-SBP tag (UNK, Homo sapiens, UniProt Q9C0B0, residues 30-357)
# Technique: RNA Bind-n-Seq
# Molecule type: RNA
# Medium: in vitro
# Tested at: not given
# Setting: RNA with constant flanks, human and mouse sites, ends assumed
# Baseline: input RNA pool
# Direction: higher = stronger binding
# All sequences stand within: GGGAGUUCUACAGUCCGACGAUC … CAACAGAGGAUUGAGCAUCA
# Residues (chain): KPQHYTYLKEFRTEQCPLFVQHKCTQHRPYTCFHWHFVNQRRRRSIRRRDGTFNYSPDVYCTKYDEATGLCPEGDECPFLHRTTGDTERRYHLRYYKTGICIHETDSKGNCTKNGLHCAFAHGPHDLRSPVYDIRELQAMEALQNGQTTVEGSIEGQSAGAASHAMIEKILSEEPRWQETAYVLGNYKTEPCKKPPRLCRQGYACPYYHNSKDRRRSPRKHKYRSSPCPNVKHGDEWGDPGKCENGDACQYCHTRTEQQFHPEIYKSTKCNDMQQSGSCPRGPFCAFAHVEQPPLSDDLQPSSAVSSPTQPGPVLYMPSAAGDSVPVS
Strand,bound/input enrichment [ratio]
UGCCGGCCCGGAGGAGGCCCGGCCAUGGGUGGAAACCUCAAAGCUCGGGGGGCCGGCGGUAGCAGCAGUUGCGGGGGCCCAAAGGGGAAGAAGAAGAACGGAAGGAACAGAGGAGGUAAA,0.303
GGGAGCUAUGAUCCACAGAAACAGCUCAUCAUUGAAGAUCCCUAUUAUGGCAAUGACUCUGACUUCGAGGUGGUGUACCAGCAAUGCCUUAGGUGCUGCAAGGCCUUCCUGGAGAAGACU,0.0974
ACUAUGCUGGUGCACGGUCCUGUGACCAGUGCCCUCCGCCCCUUCUUUACACCACUGUCCUACCUACAGGAAUUUAAUAUUUUUAAAGUUUUACAAUACUGUAUAUUCAAAGAUUUGUUU,1.72
CUGCAUUAUUUGACCAGAGUUGAAGUGACAGAAUUUGAAGAUAUUAAAUCAGGUUACAGAAUAGAUUUUUAUUUUGAUGAAAAUCCUUACUUUGAAAAUAAAGUUCUCUCCAAAGAAUUU,7.25
UAUGGCUUAAAAUGCUUUUGGAGUUUUAUUUCUCAAAUUAAAAUCUGGUCACUUGAGAUCCAUUUUGUUCUCUGGUUUAAAAGUUAAAAGGUUUCUCUUUAACAGUCUCUUCAGCAGCAA,0.262
UAUCUUAAUGACUUGGACCGCGUAGCUGACCCUGCCUACCUGCCUACGCAACAAGAUGUGCUUAGAGUUCGAGUCCCCACCACAGGGAUCAUCGAAUACCCCUUUGACUUACAAAGUGUC,0.201
UUCAGAAGGCACCAGCUUUUCUCUCUGGAUCCAUUCAUCCAAAGAAAUAUGUUUGUACUAUUUUUACAAGCUUUUUAUUUUUACUUCAUCACAGGGAAGUUCAGUCCCAAGAUGGAAAUG,0.326
CAGGAAACCCAUAUUGAUUUUGUAAUUAAAUGUCAAGCCUGUGGAUUGUUUUGAGCUUGGUAGUUGAUGAGCAUUUCCGUACAGAGGCCUCACCUUGAGCACAGCACUGUCAGGAGGGCG,0.717

# Study 2
# Target: Histone acetyltransferase KAT6A, both winged helices, GST fusion (KAT6A, Homo sapiens, UniProt Q92794, residues 1-181)
# Technique: protein binding microarray
# Molecule type: double-stranded DNA, one strand shown
# Medium: in vitro
# Tested at: not given
# Setting: 8-mer, flanks averaged, mean of 2 arrays, mostly near background
# Baseline: not given
# Direction: higher = stronger binding
# Construct (chain): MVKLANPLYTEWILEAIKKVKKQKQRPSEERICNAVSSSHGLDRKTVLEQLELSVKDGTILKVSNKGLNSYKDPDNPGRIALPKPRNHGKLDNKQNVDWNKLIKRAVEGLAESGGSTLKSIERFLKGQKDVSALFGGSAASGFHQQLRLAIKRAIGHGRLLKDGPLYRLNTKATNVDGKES
Strand,E-score
AGTGATTA,0.00781
CAGCCTGG,-0.137
ACTGAGCA,-0.0499
AGCTCCGA,0.0198
AATCCCTA,-0.0571
ACACAACG,-0.0393
AACTGGCT,-0.236
AATTTCGG,0.12

# Study 3
# Compound: CN(C)CC#Cc1ccc(OCCCc2sc(N3CCc4cccc(C(=O)Nc5nc6ccccc6s5)c4C3)nc2C(=O)O)c(F)c1
# Technique: competition with immobilised ligand
# Tested at: 1 µM
target,read-out,remaining binding [%]
"PIK3CA (Homo sapiens, UniProt P42336, E545K)",cell-free assay,95
"LATS1 (Homo sapiens, UniProt O95835)",cell-free assay,76
"EPHB3 (Homo sapiens, UniProt P54753)",cell-free assay,100
"CSNK1G1 (Homo sapiens, UniProt Q9HCP0)",cell-free assay,91
"MAP4K1 (Homo sapiens, UniProt Q92918)",cell-free assay,93
"DAPK2 (Homo sapiens, UniProt Q9UIK4)",cell-free assay,90
"ANKK1 (Homo sapiens, UniProt Q8NFD2)",cell-free assay,69
"BMPR1A (Homo sapiens, UniProt P36894)",binding,99
"PTK2B (Homo sapiens, UniProt Q14289)",cell-free assay,100
"BRAF (Homo sapiens, UniProt P15056, V600E)",cell-free assay,79
"CSNK2A1 (Homo sapiens, UniProt P68400)",cell-free assay,100
"TEC (Homo sapiens, UniProt P42680)",binding,97
"GSK3A (Homo sapiens, UniProt P49840)",cell-free assay,89

# Further values, each from its own experiment
SMILES,host,medium,tested at,time,measurement,result
CC(C)COc1cc(=O)n2c(c1C(=O)NCC1CC1)CCCCC2,mouse,microsomes or S9,2 µM,0.5 h,remaining compound,42.8%
